Assay results gathered from unrelated publications.
Compare with care: the assays were run in different laboratories.
Method: steady-state kinetics
B1: ycjS (Escherichia coli, UniProt P77503); chain MKSAMTSSPLRVAIIGAGQVADKVHASYYCTRNDLELVAVCDSRLSQAQALAEKYGNASVWDDPQAMLLAVKPDVVSVCSPNRFHYEHTLMALEAGCHVMCEKPPAMTPEQAREMCDTARKLGKVLAYDFHHRFALDTQQLREQVTNGVLGEIYVTTARALRRCGVPGWGVFTNKELQGGGPLIDIGIHMLDAAMYVLGFPAVKSVNAHSFQKIGTQKSCGQFGEWDPATYSVEDSLFGTIEFHNGGILWLETSFALNIREQSIMNVSFCGDKAGATLFPAHIYTDNNGELMTLMQREIADDNRHLRSMEAFINHVQGKPVMIADAEQGYIIQQLVAALYQSAETGTRVEL
B2: carbamoyl phosphate synthetase large subunit A23F (Escherichia coli, UniProt P00968); chain PKRTDIKSILILGAGPIVIGQFCEFDYSGAQACKALREEGYRVILVNSNPATIMTDPEMADATYIEPIHWEVVRKIIEKERPDAVLPTMGGQTALNCALELERQGVLEEFGVTMIGATADAIDKAEDRRRFDVAMKKIGLETARSGIAHTMEEALAVAADVGFPCIIRPSFTMGGSGGGIAYNREEFEEICARGLDLSPTKELLIDESLIGWKEYEMEVVRDKNDNCIIVCSIENFDAMGIHTGDSITVAPAQTLTDKEYQIMRNASMAVLREIGVETGGSNVQFAVNPKNGRLIVIEMNPRVSRSSALASKATGFPIAKVAAKLAVGYTLDELMNDITGGRTPASFEPSIDYVVTKIPRFNFEKFAGANDRLTTQMKSVGEVMAIGRTQQESLQKALRGLEVGATGFDPKVSLDDPEALTKIRRELKDAGADRIWYIADAFRAGLSVDGVFNLTNIDRWFLVQIEELVRLEEKVAEVGITGLNADFLRQLKRKGFADARLAKLAGVREAEIRKLRDQYDLHPVYKRVDTCAAEFATDTAYMYSTYEEECEANPSTDREKIMVLGGGPNRIGQGIEFDYCCVHASLALREDGYETIMVNCNPETVSTDYDTSDRLYFEPVTLEDVLEIVRIEKPKGVIVQYGGQTPLKLARALEAAGVPVIGTSPDAIDRAEDRERFQHAVERLKLKQPANATVTAIEMAVEKAKEIGYPLVVRPSYVLGGRAMEIVYDEADLRRYFQTAVSVSNDAPVLLDHFLDDAVEVDVDAICDGEMVLIGGIMEHIEQAGVHSGDSACSLPAYTLSQEIQDVMRQQVQKLAFELQVRGLMNVQFAVKNNEVYLIEVNPRAARTVPFVSKATGVPLAKVAARVMAGKSLAEQGVTKEVIPPYYSVKEVVLPFNKFPGVDPLLGPEMRSTGEVMGVGRTFAEAFAKAQLGSNSTMKKHGRALLSVREGDKERVVDLAAKLLKQGFELDATHGTAIVLGEAGINPRLVNKVHEGRPHIQDRIKNGEYTYIINTTSGRRAIEDSRVIRRSALQYKVHYDTTLNGGFATAMALNADATEKVISVQEMHAQIK
B3: protein F222A (Planktothrix agardhii, UniProt F5B6Z0); chain MIVNVIQKDRLKEQKLQFIRNHQQAFDVEPIYPLPLFEDFVTSIEGDCSLEASCKIESDKLIASRFLLFFEDKTQEWQKYLHQSLTFFGLVENRVGVKINYSLLQQFLGSSFDFSKVTVLSAGIDLRNNLAESSLKMHIRIKDYPEKLDKAFALSDGAADGNYLKDFVNLIGFDFYFNGKSEIEIYAEVQEDDFFKPEINNLVWQHFPKTALQPLKASSLFATGLSKANNNPVLYYHLKNRQDLTNYFKLNDTAQRVHSFYQHQDILPYMWVGTAQKELEKTRIENIRLYYYKSFKMESN
B4: Saccharopine reductase C154S (Saccharomyces cerevisiae, UniProt P38999); chain MGKNVLLLGSGFVAQPVIDTLAANDDINVTVACRTLANAQALAKPSGSKAISLDVTDDSALDKVLADNDVVISLIPYTFHPNVVKSAIRTKTDVVTSSYISPALRELEPEIVKAGITVMNEIGLDPGIDHLYAVKTIDEVHRAGGKLKSFLSYSGGLPAPEDSDNPLGYKFSWSSRGVLLALRNSAKYWKDGKIETVSSEDLMATAKPYFIYPGYAFVCYPNRDSTLFKDLYHIPEAETVIRGTLRYQGFPEFVKALVDMGMLKDDANEIFSKPIAWNEALKQYLGAKSTSKEDLIASIDSKATWKDDEDRERILSGFAWLGLFSDAKITPRGNALDTLCARLEELMQYEDNERDMVVLQHKFGIEWADGTTETRTSTLVDYGKVGGYSSMAATVGYPVAIATKFVLDGTIKGPGLLAPYSPEINDPIMKELKDKYGIYLKEKTVA
B5: PRP43 R159A (Saccharomyces cerevisiae, UniProt P53131); chain MGSKRRFSSEHPDPVETSIPEQAAEIAEELSKQHPLPSEEPLVHHDAGEFKGLQRHHTSAEEAQKLEDGKINPFTGREFTPKYVDILKIRRELPVHAQRDEFLKLYQNNQIMVFVGETGSGKTTQIPQFVLFDEMPHLENTQVACTQPRRVAAMSVAQAVAEEMDVKLGEEVGYSIRFENKTSNKTILKYMTDGMLLREAMEDHDLSRYSCIILDEAHERTLATDILMGLLKQVVKRRPDLKIIIMSATLDAEKFQRYFNDAPLLAVPGRTYPVELYYTPEFQRDYLDSAIRTVLQIHATEEAGDILLFLTGEDEIEDAVRKISLEGDQLVREEGCGPLSVYPLYGSLPPHQQQRIFEPAPESHNGRPGRKVVISTNIAETSLTIDGIVYVVDPGFSKQKVYNPRIRVESLLVSPISKASAQQRAGRAGRTRPGKCFRLYTEEAFQKELIEQSYPEILRSNLSSTVLELKKLGIDDLVHFDFMDPPAPETMMRALEELNYLACLDDEGNLTPLGRLASQFPLDPMLAVMLIGSFEFQCSQEILTIVAMLSVPNVFIRPTKDKKRADDAKNIFAHPDGDHITLLNVYHAFKSDEAYEYGIHKWCRDHYLNYRSLSAADNIRSQLERLMNRYNLELNTTDYESPKYFDNIRKALASGFFMQVAKKRSGAKGYITVKDNQDVLIHPSTVLGHDAEWVIYNEFVLTSKNYIRTVTSVRPEWLIEIAPAYYDLSNFQKGDVKLSLERIKEKVDRLNELKQGKNKKKSKHSKK
B6: LYPLA2 (Homo sapiens, UniProt O95372); chain MCGNTMSVPLLTDAATVSGAERETAAVIFLHGLGDTGHSWADALSTIRLPHVKYICPHAPRIPVTLNMKMVMPSWFDLMGLSPDAPEDEAGIKKAAENIKALIEHEMKNGIPANRIVLGGFSQGGALSLYTALTCPHPLAGIVALSCWLPLHRAFPQAANGSAKDLAILQCHGELDPMVPVRFGALTAEKLRSVVTPARVQFKTYPGVMHSSCPQEMAAVKEFLEKLLPPV
Chain of UniProt Q27593 (whole entry, looked up): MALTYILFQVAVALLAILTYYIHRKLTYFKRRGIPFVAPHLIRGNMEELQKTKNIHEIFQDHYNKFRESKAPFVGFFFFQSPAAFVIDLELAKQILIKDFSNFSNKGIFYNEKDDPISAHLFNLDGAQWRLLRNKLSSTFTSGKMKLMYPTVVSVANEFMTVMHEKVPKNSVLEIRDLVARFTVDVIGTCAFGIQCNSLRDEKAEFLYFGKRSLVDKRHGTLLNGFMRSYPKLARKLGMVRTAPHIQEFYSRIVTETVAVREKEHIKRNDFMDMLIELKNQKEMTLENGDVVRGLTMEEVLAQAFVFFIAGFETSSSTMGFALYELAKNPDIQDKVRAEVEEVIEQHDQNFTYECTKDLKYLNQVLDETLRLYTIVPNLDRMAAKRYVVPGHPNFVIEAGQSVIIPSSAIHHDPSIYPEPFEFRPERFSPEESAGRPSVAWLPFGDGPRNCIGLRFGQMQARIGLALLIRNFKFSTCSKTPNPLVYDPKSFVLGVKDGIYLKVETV
Chain of UniProt Q9HXU0 (whole entry, looked up): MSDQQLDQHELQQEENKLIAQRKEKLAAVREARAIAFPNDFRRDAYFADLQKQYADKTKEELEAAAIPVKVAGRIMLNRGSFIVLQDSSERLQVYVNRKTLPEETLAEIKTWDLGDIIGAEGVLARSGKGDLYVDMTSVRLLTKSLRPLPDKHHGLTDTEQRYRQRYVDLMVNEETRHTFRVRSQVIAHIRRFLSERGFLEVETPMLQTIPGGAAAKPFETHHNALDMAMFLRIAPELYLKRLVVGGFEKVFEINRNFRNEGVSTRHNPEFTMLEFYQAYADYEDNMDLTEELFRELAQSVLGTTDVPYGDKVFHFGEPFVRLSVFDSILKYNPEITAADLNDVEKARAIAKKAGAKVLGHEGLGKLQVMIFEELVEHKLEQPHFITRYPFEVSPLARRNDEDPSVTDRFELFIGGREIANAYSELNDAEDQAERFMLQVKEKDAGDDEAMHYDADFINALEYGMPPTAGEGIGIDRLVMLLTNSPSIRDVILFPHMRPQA

Substance	substrate	test system	setting	Km
B1 (ycjS)	CO[C@H]1O[C@H](CO)[C@@H](O)C(=O)[C@H]1O		pH 7, 30 °C, together with: NADH 0.3 mM	950 µM
B2	Nc1ncnc2c1ncn2[C@@H]1O[C@H](COP(=O)(O)OP(=O)(O)OP(=O)(O)O)[C@@H](O)[C@H]1O		pH 7.6, KCl 100 mM, together with: glutamine 10 mM, ornithine 10 mM	1600 µM
HCT (Coleus scutellarioides, UniProt E8ZAP2)	O=C(O)C1=C[C@@H](O)[C@@H](O)[C@H](O)C1		pH 8, pseudo-first-order, together with: p-coumaroyl CoA	388 µM
B3 (protein F222A)	CC(C)=CCOP(=O)(O)OP(=O)(O)O		together with: tri-Tyr peptide acceptor	1100 µM
AphC (Rhodococcus jostii, UniProt Q0S9X1)	CCCc1ccc(O)c(O)c1		pH 8, 25 °C, apparent, together with: O2	0.22 µM
B4 (Saccharopine reductase C154S)	NC(=O)c1ccc[n+]([C@@H]2O[C@H](COP(=O)(O)OP(=O)(O)OC[C@H]3O[C@@H](n4cnc5c(N)ncnc54)[C@H](OP(=O)(O)O)[C@@H]3O)[C@@H](O)[C@H]2O)c1		pH 9, 25 °C, together with: saccharopine	280 µM
protein (Candidatus Protochlamydia amoebophila, UniProt A0A2P9HA01)	Nc1ncnc2c1ncn2[C@@H]1O[C@H](COP(=O)(O)OP(=O)(O)OP(=O)(O)O)[C@@H](O)[C@H]1O		pH 7, 30 °C, transporter, labelled substrate, apparent, not purified	360 µM
enzyme (Daphnia magna, UniProt A0A0A7CK57)	N=C(N)NCCC[C@H](N)C(=O)O		pH 8.5	900 µM
enzyme (Pseudomonas putida, UniProt F8G0M2)	O=CNC(=O)/C=C\C(=O)O		pH 6.7, 25 °C	940 µM
enzyme (Pseudomonas aeruginosa, UniProt Q9HXU0)	Nc1ncnc2c1ncn2[C@@H]1O[C@H](COP(=O)(O)OP(=O)(O)OP(=O)(O)O)[C@@H](O)[C@H]1O		pH 7.5, 37 °C, apparent	627 µM
CYP6A8 (Drosophila melanogaster, UniProt Q27593)	CCCCCCCCCC(=O)O	DLPC	pH 7.4, 37 °C, total hydroxylation, together with: P450 reductase, NADPH	21.2 µM
B5 (PRP43 R159A)	Nc1ccn([C@@H]2O[C@H](COP(=O)(O)OP(=O)(O)OP(=O)(O)O)[C@@H](O)[C@H]2O)c(=O)n1		pH 8, KCl 100 mM, without Pfa1, together with: polyA 0.2 mM, magnesium acetate 2.5 mM	935 µM
B6 (LYPLA2)	CN(C)c1ccc(/N=N/c2ccc(C(=O)NCCCn3cc(CCCCCCCCCCCCCCCC(=O)OC[C@H](NC(=O)c4cc5ccc(O)cc5oc4=O)C(=O)N4CCOCC4)nn3)cc2)cc1		pH 7.4, 37 °C	37.5 µM

A few entries again:
Substance	substrate	test system	setting	Km
HCT (Coleus scutellarioides, UniProt E8ZAP2)	O=C(O)C1=C[C@@H](O)[C@@H](O)[C@H](O)C1		pH 8, pseudo-first-order, together with: p-coumaroyl CoA	388 µM
